Results gathered from unrelated publications.
Compare with care: the assays were run in different laboratories. Values joined by “and” are separate records of one study, mostly repeats; a detail may differ. ± marks the error that the study gave.
FAP: Prolyl endopeptidase FAP (FAP, Homo sapiens, UniProt Q12884)
Sequence of UniProt Q12884 (whole entry, looked up): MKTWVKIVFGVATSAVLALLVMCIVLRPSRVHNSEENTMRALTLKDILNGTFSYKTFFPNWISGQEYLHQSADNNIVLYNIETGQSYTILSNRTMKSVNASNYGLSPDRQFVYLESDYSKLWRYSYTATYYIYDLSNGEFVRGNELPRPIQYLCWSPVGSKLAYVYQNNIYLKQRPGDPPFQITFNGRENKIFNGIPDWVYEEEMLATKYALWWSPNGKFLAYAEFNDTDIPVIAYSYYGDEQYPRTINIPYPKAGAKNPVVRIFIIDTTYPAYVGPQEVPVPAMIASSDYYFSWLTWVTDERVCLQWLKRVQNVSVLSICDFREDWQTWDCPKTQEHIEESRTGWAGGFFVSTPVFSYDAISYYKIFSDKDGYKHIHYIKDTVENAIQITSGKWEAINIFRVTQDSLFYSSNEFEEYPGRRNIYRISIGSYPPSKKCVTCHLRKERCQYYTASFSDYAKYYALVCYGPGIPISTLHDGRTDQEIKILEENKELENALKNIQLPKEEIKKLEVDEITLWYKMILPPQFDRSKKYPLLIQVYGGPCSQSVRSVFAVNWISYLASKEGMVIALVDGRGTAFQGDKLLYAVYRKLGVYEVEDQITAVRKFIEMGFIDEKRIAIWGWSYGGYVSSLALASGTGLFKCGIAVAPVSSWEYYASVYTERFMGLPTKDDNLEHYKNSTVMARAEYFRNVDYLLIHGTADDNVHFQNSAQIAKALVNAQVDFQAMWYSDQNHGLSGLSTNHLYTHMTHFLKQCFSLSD
B1: enzyme R237A (Acetivibrio thermocellus, UniProt A3DJ38); chain MKLTIPELSLVVLIGSSGSGKSTFAKKHFKPTEVISSDFCRGLVSDDENDQTVTGAAFDVLHYIVSKRLQLGKLTVVDATNVQESARKPLIEIAKDYHCFPVAVVFNLPEKVCQERNKNRTDRQVEEYVIRKHTQQLKKSIKGLQREGFRYVYILNSPEEVEEVVFERQPLWNNKKDEHGPFDIIGDIHGCYDELKMLLEKLGYLIEEVEGGVGSGKYRVTHPEGRKVLFLGDLVDAGPKITEVLKLVMGMVKSGIALCVPGNHDVKLLRKLNGRDVQITHGLDRTLEQLAKEPQEFIEEVKAFIDGLVSHYVLDDGKLVVAHAGMKEEFQGRGSGKVREFALYGETTGETDEYGLPVRYDWASDYRGKALVVYGHTPQAEVLKVNNTINIDTGCVFGGKLTAYRYPEREIVDVKALKTYYEPAKPFLPKEDMAERFEARTDNDILDINDVLGKKIITTRLMSSITIHEENSIAALEVMSRFAADPHWLIYLPPTMSPCETSKKEGMLEHPIEAFEYFRTRGVGKVVCEQKHMGSRAVVIVCKDSQVAEKRFGVLDGTAGICYTRTGRHFFDDMQLEAELIDRVRKVLDKSGFWGDFNTDWVCLDCELMPWSAKAQKLLEEQYSAVGISGRVVLDEAVKLLKQASLNKTVSFDVSRQTSGKNADINELLQRFTERSEMMQKYVEAYRKYCWPVNSIDDLKLAPFHILATEGKVHSDKNHIWHMDTIAKYCTQDDSLIMATNHILVDVTDAESVDKGIKWWEDLTASGGEGMVVKPYDFIVKNGRELLQPAVKCRGREYLRIIYGPEYTMDENIERLRNRAVGKKRSLALREFSLGMEALERFVRNEPLYRVHECVFGVLALESEPVDPRL
B2: nitrilase (Rhodococcus rhodochrous, UniProt A4LA85); chain MVEYTNTFKVAAVQAQPVWFDAAKTVDKTVSIIAEAARNGCELVAFPEVFIPGYPYHIWVDSPLAGMAKFAVRYHENSLTMDSPHVQRLLDAARDHNIAVVVGISERDGGSLYMTQLIIDADGQLVARRRKLKPTHVERSVYGEGNGSDISVYDMPFARLGALNCWEHFQTLTKYAMYSMHEQVHVASWPGMSLYQPEVPAFGVDAQLTATRMYALEGQTFVVCTTQVVTPEAHEFFCENEEQRKLIGRGGGFARIIGPDGRDLATPLAEDEEGILYADIDLSAITLAKQAADPVGHYSRPDVLSLNFNQRRTTPVNTPLSTIHATHTFVPQFGALDGVRELNGADEQRALPSTHSDETDRATASI
B3: vapC A76S (Salmonella typhimurium, UniProt Q8ZM86); chain MLKFMLDTNTCIFTIKNKPEHIRERFNLNTSRMCISSITLMELIYGAEKSLAPERNLAVVEGFISRLEVLDYDTQSAIHTGQIRAELARKGTPVGPYDQMIAGHAGSRGLVVVTNNLREFERIPGIRIEDWC
Sequence of UniProt O60656 (whole entry, looked up): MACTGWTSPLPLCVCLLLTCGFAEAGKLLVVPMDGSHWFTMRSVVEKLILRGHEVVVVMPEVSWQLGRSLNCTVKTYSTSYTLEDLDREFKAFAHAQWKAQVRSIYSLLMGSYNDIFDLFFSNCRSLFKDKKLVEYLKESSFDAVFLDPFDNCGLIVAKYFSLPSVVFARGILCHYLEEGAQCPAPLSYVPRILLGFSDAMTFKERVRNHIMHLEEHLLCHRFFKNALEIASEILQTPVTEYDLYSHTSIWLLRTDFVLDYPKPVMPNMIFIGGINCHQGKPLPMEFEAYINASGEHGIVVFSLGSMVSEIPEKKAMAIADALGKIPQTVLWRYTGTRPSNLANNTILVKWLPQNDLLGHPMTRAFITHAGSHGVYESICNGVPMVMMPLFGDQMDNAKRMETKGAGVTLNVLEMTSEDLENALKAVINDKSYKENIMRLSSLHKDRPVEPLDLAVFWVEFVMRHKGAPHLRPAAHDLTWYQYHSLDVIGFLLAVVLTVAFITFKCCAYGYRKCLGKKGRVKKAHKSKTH
Sequence of UniProt D2D3B2 (whole entry, looked up): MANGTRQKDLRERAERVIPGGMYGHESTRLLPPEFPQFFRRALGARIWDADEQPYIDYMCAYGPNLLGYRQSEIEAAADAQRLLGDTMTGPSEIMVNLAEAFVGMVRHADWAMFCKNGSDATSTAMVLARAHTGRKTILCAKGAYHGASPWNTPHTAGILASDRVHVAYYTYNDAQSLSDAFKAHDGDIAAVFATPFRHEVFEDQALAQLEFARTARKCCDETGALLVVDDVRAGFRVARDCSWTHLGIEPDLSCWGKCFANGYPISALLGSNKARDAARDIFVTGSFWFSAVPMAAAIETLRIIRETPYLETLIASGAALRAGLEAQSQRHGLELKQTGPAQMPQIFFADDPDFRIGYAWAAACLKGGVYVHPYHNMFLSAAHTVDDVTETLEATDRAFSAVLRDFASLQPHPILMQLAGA

The tissue uptake of `N=C(N)NCCC[C@@H]1NC(=O)[C@H](CCCCNC(=O)CNC(=O)CNC(=O)CNC(=O)CC[C@H](NC(=O)CCOCCOCCOCCOCCNC(=O)c2ccc(NN)nc2)C(=O)NCC(=O)NCC(=O)NCC(=O)NCCCC[C@@H]2NC(=O)[C@@H](Cc3ccccc3)NC(=O)[C@H](CC(=O)O)NC(=O)CNC(=O)[C@H](CCCNC(=N)N)NC2=O)NC(=O)[C@@H](Cc2ccccc2)NC(=O)[C@H](CC(=O)O)NC(=O)CNC1=O` [technetium-99m labelled] is reported as 0.2 ± 0.08 %ID/g (γ-counting; female athymic nude mice, U-87 MG xenograft, brain; intravenous, 0.5 h).
For `UGT1A9 (Homo sapiens, UniProt O60656)`, the Km was 0.64 µM and 0.61 µM and 0.67 µM (O=c1c(O)c(-c2cc(O)c(O)c(O)c2)oc2cc(O)cc(O)c12; steady-state kinetics; pH 7.4, 37 °C).
`CC(=O)N(O)CCCCCNC(=O)CCC(=O)N(O)CCCCCNC(=O)CCC(=O)N(O)CCCCCNC(=S)Nc1ccc(NC(=S)NCCOCCOCCOCCOCCC(=O)N[C@@H](CCC(=O)NCCOCCOCCOCCOCCC(=O)NCCCC[C@@H]2NC(=O)[C@@H](Cc3ccccc3)NC(=O)[C@H](CC(=O)O)NC(=O)CNC(=O)[C@H](CCCNC(=N)N)NC2=O)C(=O)NCCOCCOCCOCCOCCC(=O)NCCCC[C@@H]2NC(=O)[C@@H](Cc3ccccc3)NC(=O)[C@H](CC(=O)O)NC(=O)CNC(=O)[C@H](CCCNC(=N)N)NC2=O)cc1` [zirconium-89 labelled] has a tissue uptake of 18.8 ± 2.21 %ID/g (athymic nude mice female tumour-bearing, liver; intravenous, dose not given, 4 h, with: unlabelled c(RGDfK) 300 µg).
The tissue uptake of `N=C(N)NCCC[C@@H]1NC(=O)[C@H](CCCCNC(=O)[C@H](CC(=O)O)NC(=O)[C@H](CC(=O)O)NC(=O)[C@H](CC(=O)O)NC(=O)CC[C@H](NC(=O)CCOCCOCCOCCOCCNC(=O)c2ccc(NN)nc2)C(=O)N[C@@H](CC(=O)O)C(=O)N[C@@H](CC(=O)O)C(=O)N[C@@H](CC(=O)O)C(=O)NCCCC[C@@H]2NC(=O)[C@@H](Cc3ccccc3)NC(=O)[C@H](CC(=O)O)NC(=O)CNC(=O)[C@H](CCCNC(=N)N)NC2=O)NC(=O)[C@@H](Cc2ccccc2)NC(=O)[C@H](CC(=O)O)NC(=O)CNC1=O` [technetium-99m labelled] is reported as 0.18 ± 0.06 %ID/g (U-87 MG xenograft athymic nude mice, muscle; intravenous, 60 min, with: RGD2 14 mg/kg co-injected).
For `CC[C@H]1CN2CCc3cc(OC)c(OC)cc3[C@@H]2C[C@@H]1C[C@@H]1c2cc(OC)c(OC)cc2CCN1C(=O)[C@H](C)NC(=O)[C@@H]1CCCN1C(=O)CNC(=O)[C@H](C)NC(=O)[C@@H]1CCCN1C(=O)CNC(=O)[C@H](CO)NC(=O)[C@H](C)NC(C)=O`, “hydrolysis to emetine” read 0% (FAP; substrate, HPLC-MS; 250 µM, 24 h, pH 7.8, 37 °C, 2.5% DMSO).
`OXA-48 (Klebsiella pneumoniae, UniProt Q6XEC0)` has a kcat/Km of 16000 M⁻¹ s⁻¹ (C[C@@H](O)[C@H]1C(=O)N2C(C(=O)O)=C(S[C@@H]3CN[C@H](CNS(N)(=O)=O)C3)[C@H](C)[C@H]12; steady-state kinetics; pH 7.2, 30 °C).
For `B1 (enzyme R237A)`, the kcat was 8.55 ± 0.0167 s⁻¹ (Nc1ncnc2c1ncn2[C@@H]1O[C@H](CO)[C@H]2OP(=O)(O)O[C@H]21; steady-state kinetics; pH 7.5, 45 °C).
With `COc1cccc2c1C(=O)c1c(O)c3c(c(O)c1C2=O)C[C@@](O)(C(=O)CO)C[C@@H]3O[C@H]1C[C@H](NC(=O)[C@H](CC(C)C)NC(=O)[C@H](C)NC(=O)[C@H](CC(C)C)NC(=O)CCNC(=O)CCC(=O)O)[C@H](O)[C@H](C)O1` the Tmax was 5 min (mouse, E0771 tumour-bearing, plasma; intravenous, 92 µmol/kg).
For `enzyme (Sphingopyxis macrogoltabida, UniProt D2D3B2)`, the kcat was 1.73 s⁻¹ (CCCC[C@@H](C)[C@@H](O)[C@@H](O)C[C@@H](C)C[C@H](O)CCCC[C@@H](O)C[C@H](O)[C@H](C)N; steady-state kinetics; pH 8, 35 °C, apparent).
With `B2 (nitrilase)` the kcat was 0.0001767 ± 1.67e-06 s⁻¹ (N#Cc1ccccn1; steady-state kinetics; pH 7.5, 25 °C).
With `COc1cccc2c1C(=O)c1c(O)c3c(c(O)c1C2=O)C[C@@](O)(C(=O)CO)C[C@@H]3O[C@H]1C[C@H](NC(=O)[C@@H]2CCCN2C(=O)CNC(=O)[C@H](CC(C)C)NC(=O)[C@H](C)NC(=O)CP(=O)(O)O)[C@H](O)[C@H](C)O1` the Tmax was 5 min (mouse, E0771 tumour-bearing, plasma; intravenous, 92 µmol/kg).
For `CC[C@H]1CN2CCc3cc(OC)c(OC)cc3[C@@H]2C[C@@H]1C[C@@H]1c2cc(OC)c(OC)cc2CCN1C(=O)OCc1ccc(NC(=O)[C@H](C)NC(=O)[C@@H]2CCCN2C(=O)CNC(=O)[C@H](C)NC(=O)[C@@H]2CCCN2C(=O)CNC(=O)[C@H](CO)NC(=O)[C@H](C)NC(C)=O)cc1`, “hydrolysis to emetine” read 0% (FAP; substrate, HPLC-MS; 250 µM, 24 h, pH 7.8, 37 °C, 2.5% DMSO).
The defluorination of `Cc1ccccc1NC(=O)Nc1ccc(CC(=O)N[C@@H](CCCCNC(=O)/C=C/c2cccnc2)C(=O)N[C@@H](CCCC(=O)O)C(=O)NC2(C(=O)NCCOCCOCCOCCOCC(=O)N[C@@H](CCCCNC(=S)Nc3ccc(C[C@H]4CN(CC(=O)O)CCN(CC(=O)O)CCN4CC(=O)O)cc3)C(N)=O)CCCCC2)cc1` [fluorine-18 labelled] is reported as < 5% (radio-HPLC; human serum; 4 h, 37 °C).
For `melittin`, “heat capacity change” read -0.34 kcal/mol/K (membrane partitioning, ITC enthalpy vs temperature; POPC/POPG LUVs 90:10%; concentration not given, 25 to 60 °C).
`B3 (vapC A76S)` has a vapBC transcription of 1.9 fold (itself; lacZ reporter; relative to: wild type, higher = more transcription).

For quick reference, copied from above:
`B3 (vapC A76S)` has a vapBC transcription of 1.9 fold (itself; lacZ reporter; relative to: wild type, higher = more transcription).
